Results of several laboratories.
Protocols differ between the studies behind these lines. ± gives the spread as reported.

SMILES	tested on	assay	test system	conditions	scale	quantity	result
CCCCCCCCCCCCCCC(Br)C(=O)O[C@@H](C(=O)O[C@H]1C[C@@]2(O)[C@@H](OC(=O)c3ccccc3)[C@@H]3[C@]4(OC(C)=O)CO[C@@H]4C[C@H](O)[C@@]3(C)C(=O)[C@H](OC(C)=O)C(=C1C)C2(C)C)[C@@H](NC(=O)c1ccccc1)c1ccccc1 (stereo partly shown)	tubulin	–	–	10 µM, 37 °C, with: tubulin 3 mg/mL	–	Vmax of tubulin polymerization	20 ± 1.4 mOD/min
COc1cc(CNC(=O)C[C@H](C)CCC=C(C)C)ccc1OCc1cn(-c2cccc([N+](=O)[O-])c2)nn1	ACHN	SRB	–	10 µM, 48 h	–	growth percent	112%
CC[C@H](C)[C@@H]1NC(=O)[C@H](CCCNC(=N)N)NC(=O)[C@H](C)NC(=O)CNC(=O)[C@H](CCCCN)NC(=O)[C@H](CCCNC(=N)N)NC(=O)[C@H](C(C)C)NC(=O)[C@H](C)NC(=O)[C@@H]2CSSC[C@@H]3NC(=O)[C@H](CO)NC(=O)[C@H]([C@@H](C)O)NC(=O)CNC(=O)[C@H](CCCNC(=N)N)NC(=O)[C@@H]4CCCN4C(=O)[C@H](CSSC[C@@H](C(=O)N[C@@H](CC(C)C)C(=O)O)NC(=O)[C@H](CCCCN)NC(=O)[C@H](CC(C)C)NC(=O)[C@H](CC(C)C)NC(=O)[C@H](Cc4ccccc4)NC(=O)[C@H](CO)NC(=O)[C@H](CC(N)=O)NC3=O)NC(=O)[C@H](CC(=O)O)NC(=O)[C@H](CSSC[C@H](NC(=O)[C@H](CCSC)NC(=O)[C@@H]3CCCN3C(=O)[C@@H](NC(=O)[C@H](CCC(N)=O)NC(=O)CNC(=O)[C@H](Cc3ccc(O)c(I)c3)NC(=O)[C@@H](N)CCCCN)C(C)C)C(=O)N[C@@H](CC(=O)O)C(=O)N[C@@H](C)C(=O)NCC(=O)N[C@@H](CCC(=O)O)C(=O)N[C@@H](CCC(N)=O)C(=O)N2)NC(=O)[C@H](CC(C)C)NC(=O)[C@H](CCCCN)NC(=O)CNC1=O	CART binding site, rat	–	differentiated PC-12	pH 7.4	–	Kd	0.42 ± 0.11 nM
O=c1c(OCc2ccccc2)c(-c2cccc([N+](=O)[O-])c2)oc2ccccc12	–	–	diabetic rat	5 mg/kg, day 21, p-nitrophenyl β-glucoside induced	–	blood glucose	186 ± 4.91 mg/dL
CC(C)C[C@H](NC(=O)[C@H](CO)NC(=O)[C@H](CCCNC(=N)N)NC(=O)[C@H](CC(=O)O)NC(=O)[C@H](CCC(=O)O)NC(=O)[C@H](C)NC(=O)[C@@H]1CCCN1C(=O)[C@H](C)NC(=O)[C@H](CCC(=O)O)NC(=O)[C@@H]1CCCN1C(=O)[C@@H]1CCCN1)C(N)=O	dopamine system	–	rhesus monkey, contralateral putamen	intranasal, dose not given, repeated dose escalation	reference: vehicle	HVA level reduction	25%
CC[C@H]1[C@@H](O)[C@@H]2[C@H](CC[C@]3(C)[C@@H]([C@H](C)CCOS(=O)(=O)[O-])CC[C@@H]23)[C@@]2(C)CC[C@@H](O)C[C@@H]12.[Na+]	–	histology	ob/ob NASH mouse model, liver	oral, 10 mg/kg once daily, before treatment, baseline of 8 week study, scale 0 to 3	direction not given	steatosis score	2.9 ± 0.1
COc1cc(CNC(=O)C[C@H](C)CCC=C(C)C)ccc1OCc1cn(-c2ccccc2[N+](=O)[O-])nn1	RXF 393	SRB	–	10 µM, 48 h	–	growth percent	55.9%
CCC(=O)N(C)c1ccc(Cl)c(Cl)c1	CAR3 constitutive androstane receptor, human	reporter gene, agonist	–	0.32 µM	reference: vehicle	fold activation	0.48 fold
COc1cc(CNC(=O)C[C@H](C)CCC=C(C)C)ccc1OCc1cn(-c2ccccc2Cl)nn1	ACHN	SRB	–	10 µM, 48 h	–	growth percent	67.6%
CO[C@@H]1[C@H](O)[C@@H](COP(=O)(O)OP(=O)([S-])OP(=O)(S)OC[C@H]2O[C@@H](n3cnc4c(=O)[nH]c(N)nc43)[C@H](O)[C@@H]2O)O[C@H]1n1c[n+](C)c2c(O)nc(N)nc21 (mixture of isomers)	Schizosaccharomyces pombe Dcp1/Dcp2 complex	substrate	capped short RNA	15 min, 30 °C	–	decapping	32.2 ± 1.5%

Repeated from above:
SMILES	tested on	assay	test system	conditions	scale	quantity	result
COc1cc(CNC(=O)C[C@H](C)CCC=C(C)C)ccc1OCc1cn(-c2ccccc2Cl)nn1	ACHN	SRB	–	10 µM, 48 h	–	growth percent	67.6%
